# Experimental data from different studies.
# Protocols differ between the studies behind these lines.
# CYP3A4: Cytochrome P450 3A4 (CYP3A4, Homo sapiens, UniProt P08684)
# Chain of UniProt P08684 (whole entry, looked up): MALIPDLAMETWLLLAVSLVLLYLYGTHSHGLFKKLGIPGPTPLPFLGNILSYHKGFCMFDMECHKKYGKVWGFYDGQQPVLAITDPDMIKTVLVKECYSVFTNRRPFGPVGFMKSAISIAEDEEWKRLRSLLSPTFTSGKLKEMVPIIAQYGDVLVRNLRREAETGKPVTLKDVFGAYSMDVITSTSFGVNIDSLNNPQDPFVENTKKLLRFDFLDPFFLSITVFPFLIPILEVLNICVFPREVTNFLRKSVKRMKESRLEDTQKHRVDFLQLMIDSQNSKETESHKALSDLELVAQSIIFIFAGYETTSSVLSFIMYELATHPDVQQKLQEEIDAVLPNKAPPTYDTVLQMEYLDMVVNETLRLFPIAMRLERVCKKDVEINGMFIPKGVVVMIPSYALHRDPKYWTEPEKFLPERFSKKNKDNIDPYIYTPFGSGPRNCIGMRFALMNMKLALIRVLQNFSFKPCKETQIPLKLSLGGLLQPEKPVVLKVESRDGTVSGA
# Chain of UniProt P20815 (whole entry, looked up): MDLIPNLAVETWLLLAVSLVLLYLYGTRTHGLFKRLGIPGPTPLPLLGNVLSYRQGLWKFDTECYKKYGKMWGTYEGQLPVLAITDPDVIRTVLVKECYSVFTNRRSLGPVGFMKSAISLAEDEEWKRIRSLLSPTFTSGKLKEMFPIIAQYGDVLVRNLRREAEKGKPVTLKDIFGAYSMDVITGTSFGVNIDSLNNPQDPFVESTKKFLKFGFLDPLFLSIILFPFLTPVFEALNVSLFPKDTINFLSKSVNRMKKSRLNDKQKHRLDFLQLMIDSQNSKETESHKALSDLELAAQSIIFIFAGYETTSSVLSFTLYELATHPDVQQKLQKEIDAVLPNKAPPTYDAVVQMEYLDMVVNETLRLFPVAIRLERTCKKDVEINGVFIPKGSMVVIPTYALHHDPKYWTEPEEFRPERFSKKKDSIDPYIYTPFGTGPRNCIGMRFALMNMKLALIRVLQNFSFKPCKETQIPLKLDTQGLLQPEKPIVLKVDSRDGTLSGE
Structure (SMILES),target or system,assay,test system,setting,scale,endpoint,result
C=CC(=O)Nc1cc(Nc2nccc(-c3cn(C)c4ccccc34)n2)c(OCC(F)(F)F)nc1N(C)CCNC,"Cytochrome P450 3A5 (CYP3A5, Homo sapiens, UniProt P20815)",substrate,,"3 µM, 60 min, 3A5 isoform, liver abundance-normalized",,contribution to metabolite formation,0.444%
O=C(CN1CN(c2ccccc2)C2(CCN(C(=O)c3ccc4[nH]ncc4c3)CC2)C1=O)N(CCO)CC(F)(F)F,CYP3A4,"enzyme activity, inhibitor",,,,IC50,31 µM
C=CC(=O)N1C[C@H](C)N(c2nc(OC[C@@]34CCCN3C[C@H](F)C4)nc3c(F)c(-c4ccc(F)c5sc(N)c(C#N)c45)c(C(F)(F)F)cc23)C[C@H]1C,glutathione,"reaction with glutathione, HPLC",,"pH 7.4, 37 °C, with: 5 mM glutathione",,half-life,1.25 h
O=C1C2CC3CC1CC(C(=O)N1CCN(c4ccc([N+](=O)[O-])c5ncccc45)CC1)(C3)C2,Salmonella typhimurium,Ames test,TA100,"0.78 µg/well, without S9",,mean revertant colonies,23 colonies/well
O=C(c1ccc(-c2cccc(C(F)(F)F)c2)cc1)N1CCN(c2ncccn2)CC1,CYP3A4,"time-dependent inhibition, inhibitor",,,,kobs,0.014 min⁻¹
Cc1ncsc1-c1ccc(C(C)NC(=O)C2CC(O)CN2C(=O)C(NC(=O)CCCCCCCCCCN2CCCC(Nc3ncc(Cl)c(Nc4ccccc4S(=O)(=O)C(C)C)n3)C2)C(C)(C)C)cc1 (stereo not drawn),22Rv1,"RNA-seq, refers to: RASA3 mRNA",,concentration not given,relative to: DMSO,log2 fold change,-1.72
C=CC(=O)N1CC2(CCN(c3nc(OC4CCN(CCCOC)CC4)nc4c(OCC(F)(F)F)c(-c5c(C)ccc6[nH]ncc56)c(C5CC5)cc34)CC2)C1,glutathione,"reaction with glutathione, HPLC",,"pH 7.4, 37 °C, with: 5 mM glutathione",,half-life,1.01 h
N#Cc1cc(NC(=O)C2c3ccccc3C(=O)N(CC(F)(F)F)C2c2cccnc2)ccc1F (racemic),"CYP1A2, 2C9, 2C19, 2D6, 3A4 (human)",substrate turnover,liver microsomes,"10 µM, maximum across isoforms",,inhibition,< 50%
O=C(Nc1cnccc1-c1ccc([18F])nc1)c1ccnc(NC(=O)C2CC2)c1,,,"FVB/NJ mice (both sexes), blood","intravenous, dose not given, 120 min",,SUV,0.383
CN(CC(F)(F)F)C(=O)CN1CN(c2ccccc2)C2(CCN(C(=O)c3ccc4[nH]ncc4c3)CC2)C1=O,CYP3A4,"enzyme activity, inhibitor",,,,IC50,22 µM
CNC(=O)C1CCCN(C(=O)C2CC3CCC2N3C(=O)[C@@H]2C[C@@H](O)CN2C(=O)NCc2cccc(Cl)c2F)C1 (mixture of isomers),CYP3A4 (human),"inhibitor, time-dependent inhibition",,"0.206 µM, preincubated without NADPH, with: testosterone substrate",relative to: negative control,remaining activity,98.9%
COC1CN([C@H]2CC[C@H]([C@@]3(C)Oc4c(Cl)cc(C(=O)NCc5c(SC)cc(C)[nH]c5=O)c(C)c4O3)CC2)C1,,"RNA-seq, refers to: CKB","human, whole blood","dose not given, 24 h",relative to: pretreatment baseline,log2 fold change,1.54

# For quick reference, copied from above:
Structure (SMILES),target or system,assay,test system,setting,scale,endpoint,result
CN(CC(F)(F)F)C(=O)CN1CN(c2ccccc2)C2(CCN(C(=O)c3ccc4[nH]ncc4c3)CC2)C1=O,CYP3A4,"enzyme activity, inhibitor",,,,IC50,22 µM
